Experimental data of several laboratories.
Each numbered part is a random draw from the data of one study; scales do not carry over between parts. Positions count from the first letter of the parent shown.

Sample 1
Target: Sal-like protein 4, full length isoform A (SALL4, Homo sapiens, UniProt Q9UJQ4, residues 1-1053)
Sequence of UniProt Q9UJQ4 (whole entry, looked up): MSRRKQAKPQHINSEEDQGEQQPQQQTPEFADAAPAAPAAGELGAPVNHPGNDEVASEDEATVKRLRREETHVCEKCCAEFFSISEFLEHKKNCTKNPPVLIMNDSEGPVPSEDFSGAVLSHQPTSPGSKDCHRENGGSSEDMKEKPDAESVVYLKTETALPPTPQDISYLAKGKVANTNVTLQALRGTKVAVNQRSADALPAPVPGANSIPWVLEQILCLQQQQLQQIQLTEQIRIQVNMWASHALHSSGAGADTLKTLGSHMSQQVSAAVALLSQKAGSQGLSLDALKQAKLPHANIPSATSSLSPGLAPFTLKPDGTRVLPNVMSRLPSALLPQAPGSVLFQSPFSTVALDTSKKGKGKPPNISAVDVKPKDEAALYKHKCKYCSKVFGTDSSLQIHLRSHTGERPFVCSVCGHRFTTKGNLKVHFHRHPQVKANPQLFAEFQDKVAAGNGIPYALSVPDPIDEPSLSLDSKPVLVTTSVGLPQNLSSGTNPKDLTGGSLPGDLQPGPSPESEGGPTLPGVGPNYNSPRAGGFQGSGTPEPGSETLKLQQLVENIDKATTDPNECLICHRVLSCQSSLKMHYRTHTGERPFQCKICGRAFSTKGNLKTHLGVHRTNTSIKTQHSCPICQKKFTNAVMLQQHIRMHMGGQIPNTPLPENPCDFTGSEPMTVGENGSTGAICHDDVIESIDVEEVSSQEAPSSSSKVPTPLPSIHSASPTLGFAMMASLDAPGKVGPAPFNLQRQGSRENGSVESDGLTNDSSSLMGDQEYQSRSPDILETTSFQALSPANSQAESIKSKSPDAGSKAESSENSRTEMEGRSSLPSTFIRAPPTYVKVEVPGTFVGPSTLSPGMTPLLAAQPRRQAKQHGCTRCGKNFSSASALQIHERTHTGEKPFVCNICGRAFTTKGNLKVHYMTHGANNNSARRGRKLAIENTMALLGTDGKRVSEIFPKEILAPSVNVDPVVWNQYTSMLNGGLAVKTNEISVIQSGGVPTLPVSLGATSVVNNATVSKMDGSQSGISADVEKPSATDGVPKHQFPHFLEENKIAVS
Technique: universal PBM
Molecule type: double-stranded DNA, one strand shown
Matrix: in vitro
Tested at: 600 nM
Notes: 8-mer, flanks averaged, mean of replicates
Direction: higher = stronger binding
`AAACATAG` gave an E-score of 0.155.
For `TACTTACA`, the E-score was 0.195.
`CAAGACCC` has an E-score of -0.165.
With `GTAGTAAA` the E-score was 0.295.
The E-score of `ACTTATGC` is reported as 0.191.
The E-score of `CAAATCGA` is reported as 0.168.
With `GACAAGAC` the E-score was -0.0998.
With `CCACGACA` the E-score was -0.156.
`GCGGTTCC` has an E-score of -0.198.
With `AGAAGGGG` the E-score was -0.271.
`TAGAAAGA` has an E-score of -0.00658.
`AGCCTAGA` has an E-score of -0.155.
`CGTATTAG` has an E-score of 0.176.
The E-score of `AACGTACT` is reported as 0.0438.

Sample 2
Target: CCNB3, cyclin fold, Cln2 fusion (human)
Technique: yeast growth competition, sequencing
Matrix: yeast
Notes: weak parent motif
Relative to: not given
Direction: higher = stronger binding
Starting sequence: CDC25A docking peptide (human); PPHRRRLLFACSP
Under “normalised enrichment score”, `R5T` is recorded as 0.0449.
`L8D`: “normalised enrichment score” 0.544.
Under “normalised enrichment score”, `S12N` is recorded as 0.549.
For `C11D`, “normalised enrichment score” read -0.136.
`C11A` — result for “normalised enrichment score”: 0.522.
`F9H` — result for “normalised enrichment score”: 0.0458.
`P1I`: “normalised enrichment score” 0.364.
For `P1A`, “normalised enrichment score” read 0.124.
`H3A` — result for “normalised enrichment score”: 0.259.
For `L8I`, “normalised enrichment score” read 0.227.
For `F9P`, “normalised enrichment score” read 0.127.
`S12H` — result for “normalised enrichment score”: 0.159.
Under “normalised enrichment score”, `S12W` is recorded as 0.415.

Sample 3
Target: Histone acetyltransferase KAT6A, winged helix 2, GST fusion (KAT6A, Homo sapiens, UniProt Q92794, residues 85-181)
Technique: protein binding microarray
Molecule type: double-stranded DNA, one strand shown
Matrix: in vitro
Tested at: not given
Notes: 8-mer, flanks averaged, mean of 2 arrays, mostly near background
Relative to: not given
Direction: higher = stronger binding
Construct (chain): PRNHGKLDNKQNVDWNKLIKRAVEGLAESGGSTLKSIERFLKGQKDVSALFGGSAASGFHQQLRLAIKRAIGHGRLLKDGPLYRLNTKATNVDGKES
`CAACTGGC` has an E-score of 0.0952.
The E-score of `CTTCCCAC` is reported as 0.0681.
With `ACAGGCCC` the E-score was -0.129.
The E-score of `AACATCCA` is reported as -0.0365.
`CTTGAATC` has an E-score of 0.0346.
For `GCTCGGCA`, the E-score was 0.0588.
`ACACTCCG` has an E-score of -0.134.
For `CGGACCAG`, the E-score was 0.0863.
`ACAGACCC` has an E-score of -0.00665.
For `CACATCGC`, the E-score was -0.0879.
`ACATGTAC` gave an E-score of -0.196.
`CGGTCCAG` gave an E-score of 0.00507.
`AACATGCA` gave an E-score of -0.0187.
`AACGTCGC` has an E-score of 0.0127.
`CAAATATG` has an E-score of -0.161.

Sample 4
Target: RNA binding protein fox-1 homolog 2, RRM domain, GST-SBP tag (RBFOX2, Homo sapiens, UniProt O43251-10, residues 100-194)
Technique: RNA Bind-n-Seq
Molecule type: RNA
Matrix: in vitro
Tested at: 365 nM
Notes: natural RNA segment, single round, ends assumed
Relative to: no-protein control
Direction: higher = stronger binding
Constant ends, left off below: GGGAGUUCUACAGUCCGACGAUC … UGGAAUUCUCGGGUGCCAA
Residues (chain): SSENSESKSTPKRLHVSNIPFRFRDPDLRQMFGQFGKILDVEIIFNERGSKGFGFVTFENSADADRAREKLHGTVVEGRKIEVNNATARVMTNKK
`AGCCACGUGGGCAUCCACUCCUUUUCCUGCAAGAGAUGAUGGUUCCAUUGCUCUUGGCUUCAUGGUGUUCCUGGAAGGCAGAUGAGCUGGUCAUUUCGCCUGGGACUCGG` — result for “RBNS enrichment (R)”: 0.501.
Under “RBNS enrichment (R)”, `AGUGCUUUUAACAAACUUAAGCUUCUGCCCUGCCAAGGGAAUUAAUGUUAUCUUGUGAAAGGUGUUGCUGUUUGAAUUGAUGAGAAAUGGAAGAUGAGAACUCCCUAAGA` is recorded as 0.359.
Under “RBNS enrichment (R)”, `UUAGGUCAUCUCAAGGCUGAUACUUGAGCUGUGUGCCCAGAGAUCAUGCAUUUAGAUUUAUAUUUUUGCCAGAAAAUACAAGGUUAUAAUAAAACUAAGAACUACCAUUU` is recorded as 0.311.
`UAGUGAUUUUAGGGCUUUGUUAUUUAACUUAUUUCAAGGGUGCUGUGCUCAGCCCUGCCCAUGGCUGUGCAGCUCCCUCCGUGCCUCAGAUCUGCUGUAGCCAGUGCAGA` — result for “RBNS enrichment (R)”: 0.379.
`UUGGUCACUGUUAUUUGCCUACUGCUGGAAGAAGGACAACCGCUGGCAAGGUAGCGUUCCCCAAUCUGAAUACCUGCAGGCUCCCACAUGAGGGAGAGGGCAGACUCAGG`: “RBNS enrichment (R)” 0.298.
`AAUUGCAUAUAUUGUAAAAUAGAGUCAGAUGUAUAUUUUAAAAUAAUUUCAGCUGACUUUCCUCUGACUGCUUUGUCUACUCAGUUAGAAAUAUUCAGAUACAAGUUUUA` — result for “RBNS enrichment (R)”: 0.678.
`CUUCCAUUCCUGGUUUUAGGGCAGAAUCCAUGGAGACUGCUUCCAGAAGGCAUCUGGCUCUGAGUUAUAAAUUACUUCCCUGGUCCUGACAGUCACCUGGGGUCCCCCCU` — result for “RBNS enrichment (R)”: 0.299.
`CUUUCCCUUUCCCUUCAAAUCUUUUAAUGGUAAGAAAGCAAGUGAAGCUUGGUGCAAGCUAAAAUUUUUAAAUGGUGUGGAAAUGCAAAUAAUACCAAGUAAAAUAAUAC`: “RBNS enrichment (R)” 2.36.

Sample 5
Target: RING finger protein unkempt homolog, zinc fingers 1-6, GST-SBP tag (UNK, Homo sapiens, UniProt Q9C0B0, residues 30-357)
Technique: RNA Bind-n-Seq
Molecule type: RNA
Matrix: in vitro
Tested at: not given
Notes: RNA with constant flanks, human and mouse sites, ends assumed
Relative to: input RNA pool
Direction: higher = stronger binding
Constant ends, left off below: GGGAGUUCUACAGUCCGACGAUC … CAACAGAGGAUUGAGCAUCA
Target sequence (chain): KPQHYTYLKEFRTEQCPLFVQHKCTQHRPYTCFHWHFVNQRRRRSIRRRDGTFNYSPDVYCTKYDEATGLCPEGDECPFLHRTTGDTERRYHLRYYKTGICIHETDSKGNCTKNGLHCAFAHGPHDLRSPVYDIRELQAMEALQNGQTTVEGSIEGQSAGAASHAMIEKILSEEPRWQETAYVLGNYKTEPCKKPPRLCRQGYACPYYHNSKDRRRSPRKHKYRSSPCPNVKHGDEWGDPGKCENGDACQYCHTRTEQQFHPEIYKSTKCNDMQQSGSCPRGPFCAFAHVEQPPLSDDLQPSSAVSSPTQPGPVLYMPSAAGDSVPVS
With `ACCUUUGACCAGGCCACGGGAGGGACCGCGCAGUUUGAAGCACACUCUGAUGCUCAGGCUCUAGUUCUCUUAGAUGUCACACCUGACCAGUCAAUGGUGGAUGAGGGCAUGGCUCGGGAA` the bound/input enrichment was 0.169 ratio.
`UUUAUAGAAAUCACCGAUGACCAGUUUGACUUUCAUACAUACUGUAUGAGGAAGAUCACCCUUAGAUCAUAUGUGGACUUAUUAAAACUAGAAGAUGUACUUCGACAGCAUCCAUUUUAC` has a bound/input enrichment of 4.37 ratio.
The bound/input enrichment of `UUAAUGUUCUUAAUAAAGUGUUCUUGGAGUUGAACCUAGCAGCGGAUGGCUUUCUUUAGCUUAGCCCAGUUUCCAGGGAAGCGUUGUUUCUCCAGGCUGUAAAAUGGCAGACUCUCCUGG` is reported as 0.4 ratio.
`GAGGAAACAGACUACACUCCCGUUUGGUGCAUGCGCCAGGCAGGCCGUUACUUACCAGAGUUUAGGGAAACCCGGGCUGCCCAGGACUUUUUCAGCACGUGUCGCUCUCCUGAGGCCUGC` has a bound/input enrichment of 0.0892 ratio.
`UGGCAUAAACUCUCUGCUGACAACAUGGACCCAGACUUUGUGGAGAGACGACGCGUGGGCUUAGAAAACUUCCUCUUGAGGGUUGCUUCACAUCCUGUCCUUUGUAGAGACAAAAUCUUC` gave a bound/input enrichment of 0.225 ratio.
`AAUAAACAGGAUAUGAAAGGGUGCAUGACAGCAGCUGAAAUCUCCAAAUACCUCACCCUAAGUUCAAUCAAGGACCACCCGUGGCACAUCCAGUCGUGCUGUGCGCUCACAGGAGAAGGG` has a bound/input enrichment of 0.17 ratio.

Sample 6
Target: Myc proto-oncogene protein, bHLH-zipper, MAX partner unstated (MYC, Homo sapiens, UniProt P01106, residues 368-449)
Sequence of UniProt P01106 (368-449, looked up): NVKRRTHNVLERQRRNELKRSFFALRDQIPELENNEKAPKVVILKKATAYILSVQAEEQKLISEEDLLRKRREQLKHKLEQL
Technique: protein-binding microarray
Molecule type: double-stranded DNA, one strand shown
Matrix: in vitro
Tested at: not given
Notes: k-mer, scored over probes, only values ≥0.25
Direction: higher = stronger binding
The E-score of `AACCGCAC` is reported as 0.282.
For `CGTGTTCC`, the E-score was 0.305.
`GCGGCCAC` has an E-score of 0.316.
For `CGCACGAC`, the E-score was 0.255.
`CCCTACCA` has an E-score of 0.264.
With `CGTGATCC` the E-score was 0.257.
`CCACGCCG` gave an E-score of 0.431.
`ACATGATC` gave an E-score of 0.336.
For `ATGCACAT`, the E-score was 0.345.
`CGTGGCTC` gave an E-score of 0.413.
`CACGCTGC` gave an E-score of 0.435.

Excerpt of the above (sample 2):
`L8D`: “normalised enrichment score” 0.544.
Under “normalised enrichment score”, `S12N` is recorded as 0.549.
For `C11D`, “normalised enrichment score” read -0.136.
`C11A` — result for “normalised enrichment score”: 0.522.
`F9H` — result for “normalised enrichment score”: 0.0458.
`P1I`: “normalised enrichment score” 0.364.
For `P1A`, “normalised enrichment score” read 0.124.
`H3A` — result for “normalised enrichment score”: 0.259.
For `L8I`, “normalised enrichment score” read 0.227.
